Assay results gathered from unrelated publications.
Every numbered part comes from another study and shows a few of its results, in no order. Substitutions count along the parent as printed.

Block 1
Target: Interferon regulatory factor 3, full length, phosphomimetic (IRF3, Homo sapiens, UniProt Q14653, residues 1-427, S386D/S396D/S398D/S402D/T404D/S405D)
Chain of UniProt Q14653 (whole entry, unmodified, looked up): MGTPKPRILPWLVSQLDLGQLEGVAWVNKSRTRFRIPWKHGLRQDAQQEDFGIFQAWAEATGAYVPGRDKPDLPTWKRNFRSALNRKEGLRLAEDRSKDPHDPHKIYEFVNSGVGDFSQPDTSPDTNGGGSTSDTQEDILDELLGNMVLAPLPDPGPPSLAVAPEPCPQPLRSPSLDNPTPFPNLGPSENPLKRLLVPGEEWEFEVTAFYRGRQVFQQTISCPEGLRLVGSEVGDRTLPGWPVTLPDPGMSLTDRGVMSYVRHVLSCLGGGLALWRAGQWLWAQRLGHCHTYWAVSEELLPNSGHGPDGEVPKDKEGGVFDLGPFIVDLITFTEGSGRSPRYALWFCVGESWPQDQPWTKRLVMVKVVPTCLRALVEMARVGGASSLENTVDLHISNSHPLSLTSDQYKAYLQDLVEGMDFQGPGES
Technique: protein-binding microarray
Form: double-stranded DNA, one strand shown
Medium: in vitro
Tested at: 2540 nM top
Setting: 60-bp whole probe
Added: salmon DNA 0.4 mg/ml
Reference: random background probes
Reading: higher = stronger binding
All sequences stand within: GCCTAGCAC … GTCTTGATTCGCTTGACGCTGCTG
`TTAGATTTCAGACTGGATTCGTGCTAG` — result for “fitted relative affinity”: 0.582 z-score.
Under “fitted relative affinity”, `GACGAACTCGGGACTGGAGACGTGCTA` is recorded as -0.42 z-score.
For `TTAGATATCAGACCGGATTAGTGCTAG`, “fitted relative affinity” read 0.171 z-score.
`GACGGTACCGACTTTCGGGACGTGCTA` — result for “fitted relative affinity”: 1.63 z-score.
For `TCAACATTGTGCAATCTTACTGTGCTA`, “fitted relative affinity” read 0.129 z-score.
`GCCATTGTGGATCTTGCAGAGTGCTAG` — result for “fitted relative affinity”: -0.144 z-score.
`GAACATATTTGTTTCCATTTGTGCTAG` — result for “fitted relative affinity”: 5.47 z-score.
Under “fitted relative affinity”, `GACGAACTGGGGTATCAAGACGTGCTA` is recorded as -0.371 z-score.
`GGCGGTCTCCTTATCCTGACGTGCTAG`: “fitted relative affinity” 2.82 z-score.
`GACGGTGTCCTTTCCCTGACGTGCTAG` — result for “fitted relative affinity”: 4.46 z-score.
`AAAGATTTACAAACTGTGAGGGTGCTA` — result for “fitted relative affinity”: -0.118 z-score.
Under “fitted relative affinity”, `GATGGACTGGACTATCGGGACGTGCTA` is recorded as -0.676 z-score.
For `TTAGATATCGGGTATCGATCAGTGCTA`, “fitted relative affinity” read 0.139 z-score.
For `TTAGATGTCAGACTGGATTAGTGCTAG`, “fitted relative affinity” read -0.0555 z-score.
Under “fitted relative affinity”, `TCATTTCTAATTTACTTACTGTGCTAG` is recorded as 2.65 z-score.
`TATGTTCCCTATATAAGGCGGTGCTAG` — result for “fitted relative affinity”: 2.37 z-score.
For `GACGAACTGGGGAATCGAGACGTGCTA`, “fitted relative affinity” read -0.385 z-score.

Block 2
Target: ABI1, truncated, D143A, DHFR fusion (Arabidopsis thaliana)
Technique: DHFR PCA, deep sequencing
Medium: yeast
Setting: methotrexate growth selection, single substitutions
Added: (+)-ABA 58 µM
Reference: wild-type fitted maximum
Reading: higher = stronger binding
Parent: PYL1, truncated, DHFR fusion (Arabidopsis thaliana); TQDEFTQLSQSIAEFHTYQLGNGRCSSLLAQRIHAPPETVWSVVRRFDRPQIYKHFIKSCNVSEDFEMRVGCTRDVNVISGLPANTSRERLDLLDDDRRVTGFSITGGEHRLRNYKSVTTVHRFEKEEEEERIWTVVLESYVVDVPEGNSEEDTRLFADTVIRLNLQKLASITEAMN
`S11Q` — result for “relative binding score”: 91.1%.
`E125P`: “relative binding score” 89.7%.
`Q7I`: “relative binding score” 72%.
Under “relative binding score”, `R113C` is recorded as 88.3%.
Under “relative binding score”, `K126S` is recorded as 98.8%.
`N61W`: “relative binding score” 79.5%.
`K54I`: “relative binding score” 9.18%.
Under “relative binding score”, `V137C` is recorded as 44.9%.
For `P36T`, “relative binding score” read 79.6%.
For `F47P`, “relative binding score” read -1.83%.
Under “relative binding score”, `V76F` is recorded as 2%.
Under “relative binding score”, `E4P` is recorded as 82.1%.
Under “relative binding score”, `H122P` is recorded as -4.25%.
`V142G`: “relative binding score” 50.6%.
For `V44L`, “relative binding score” read 79.6%.
`V76P`: “relative binding score” 9.74%.
For `P83G`, “relative binding score” read 47.3%.
`E130I` — result for “relative binding score”: 91.6%.
Under “relative binding score”, `D96W` is recorded as 10.3%.
For `R88H`, “relative binding score” read 90.5%.

Block 3
Target: CCNB3, cyclin fold, Cln2 fusion (human)
Technique: yeast growth competition, sequencing
Medium: yeast
Setting: strong parent motif
Reference: not given
Reading: higher = stronger binding
Parent: BRCA2 docking peptide (human); PSIKRNLLNEFDR; partner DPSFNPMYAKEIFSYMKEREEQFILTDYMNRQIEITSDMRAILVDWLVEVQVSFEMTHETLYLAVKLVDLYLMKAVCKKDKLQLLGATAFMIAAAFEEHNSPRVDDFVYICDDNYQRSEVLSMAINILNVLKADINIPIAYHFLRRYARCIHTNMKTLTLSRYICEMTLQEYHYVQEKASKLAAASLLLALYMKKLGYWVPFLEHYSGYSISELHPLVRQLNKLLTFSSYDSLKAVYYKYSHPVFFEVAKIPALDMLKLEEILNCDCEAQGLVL
`D12Q`: “normalised enrichment score” 0.988.
For `L7D`, “normalised enrichment score” read 0.109.
For `F11Y`, “normalised enrichment score” read 0.609.
`P1I`: “normalised enrichment score” 1.19.
Under “normalised enrichment score”, `K4R` is recorded as 1.97.
`I3G`: “normalised enrichment score” 0.581.
Under “normalised enrichment score”, `L7E` is recorded as 0.293.
`R13E`: “normalised enrichment score” 0.8.
`R13D`: “normalised enrichment score” 0.975.
`I3R`: “normalised enrichment score” -0.0923.
For `K4H`, “normalised enrichment score” read -0.0577.
`E10F`: “normalised enrichment score” 0.692.
Under “normalised enrichment score”, `R13K` is recorded as 0.956.
`N9E`: “normalised enrichment score” 1.38.
Under “normalised enrichment score”, `K4Y` is recorded as 0.355.
For `K4G`, “normalised enrichment score” read -0.0606.
For `R13Y`, “normalised enrichment score” read 1.46.
`S2P` — result for “normalised enrichment score”: 0.732.
Under “normalised enrichment score”, `I3C` is recorded as 1.77.
`N9Q` — result for “normalised enrichment score”: 1.53.
`S2I`: “normalised enrichment score” 1.44.
`S2D`: “normalised enrichment score” 0.8.
`R13L` — result for “normalised enrichment score”: 0.542.
`E10P` — result for “normalised enrichment score”: 0.186.

Mixed results
With `PhoQ, residues 284 288 289 292 302 303 AMDMFI` the fold induction was 0.505 (PhoP, residues 12 14 15 18 19 VQGLL (Escherichia coli, UniProt P23836); Sort-seq, refers to: YFP reporter; E. coli; PhoQ-PhoP variant library, added: 10 µM Mg2+; reference: high Mg2+ state, higher = stronger signaling).

For quick reference, copied from above (block 1):
Under “fitted relative affinity”, `GATGGACTGGACTATCGGGACGTGCTA` is recorded as -0.676 z-score.
For `TTAGATGTCAGACTGGATTAGTGCTAG`, “fitted relative affinity” read -0.0555 z-score.
`AAAGATTTACAAACTGTGAGGGTGCTA` — result for “fitted relative affinity”: -0.118 z-score.
Under “fitted relative affinity”, `GACGAACTCGGGACTGGAGACGTGCTA` is recorded as -0.42 z-score.
`GGCGGTCTCCTTATCCTGACGTGCTAG`: “fitted relative affinity” 2.82 z-score.
`GACGGTACCGACTTTCGGGACGTGCTA` — result for “fitted relative affinity”: 1.63 z-score.
`GAACATATTTGTTTCCATTTGTGCTAG` — result for “fitted relative affinity”: 5.47 z-score.
`GCCATTGTGGATCTTGCAGAGTGCTAG` — result for “fitted relative affinity”: -0.144 z-score.
